Measurements of several laboratories.
Lines come from different studies, so protocols differ.
MTNR1B: Melatonin receptor type 1B (MTNR1B, Homo sapiens, UniProt P49286)
Sequence of UniProt P49286 (whole entry, looked up): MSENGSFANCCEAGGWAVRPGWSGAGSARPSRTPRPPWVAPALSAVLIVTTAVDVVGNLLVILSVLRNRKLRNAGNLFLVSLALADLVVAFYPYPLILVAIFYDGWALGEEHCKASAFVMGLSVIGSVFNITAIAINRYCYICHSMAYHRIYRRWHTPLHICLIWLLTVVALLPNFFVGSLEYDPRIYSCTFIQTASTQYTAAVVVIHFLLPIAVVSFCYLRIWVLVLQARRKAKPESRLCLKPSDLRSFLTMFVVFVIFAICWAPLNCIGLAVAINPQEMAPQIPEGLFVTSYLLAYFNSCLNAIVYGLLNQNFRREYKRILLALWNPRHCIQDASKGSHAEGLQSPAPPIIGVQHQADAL
Sequence of UniProt P07949 (whole entry, looked up): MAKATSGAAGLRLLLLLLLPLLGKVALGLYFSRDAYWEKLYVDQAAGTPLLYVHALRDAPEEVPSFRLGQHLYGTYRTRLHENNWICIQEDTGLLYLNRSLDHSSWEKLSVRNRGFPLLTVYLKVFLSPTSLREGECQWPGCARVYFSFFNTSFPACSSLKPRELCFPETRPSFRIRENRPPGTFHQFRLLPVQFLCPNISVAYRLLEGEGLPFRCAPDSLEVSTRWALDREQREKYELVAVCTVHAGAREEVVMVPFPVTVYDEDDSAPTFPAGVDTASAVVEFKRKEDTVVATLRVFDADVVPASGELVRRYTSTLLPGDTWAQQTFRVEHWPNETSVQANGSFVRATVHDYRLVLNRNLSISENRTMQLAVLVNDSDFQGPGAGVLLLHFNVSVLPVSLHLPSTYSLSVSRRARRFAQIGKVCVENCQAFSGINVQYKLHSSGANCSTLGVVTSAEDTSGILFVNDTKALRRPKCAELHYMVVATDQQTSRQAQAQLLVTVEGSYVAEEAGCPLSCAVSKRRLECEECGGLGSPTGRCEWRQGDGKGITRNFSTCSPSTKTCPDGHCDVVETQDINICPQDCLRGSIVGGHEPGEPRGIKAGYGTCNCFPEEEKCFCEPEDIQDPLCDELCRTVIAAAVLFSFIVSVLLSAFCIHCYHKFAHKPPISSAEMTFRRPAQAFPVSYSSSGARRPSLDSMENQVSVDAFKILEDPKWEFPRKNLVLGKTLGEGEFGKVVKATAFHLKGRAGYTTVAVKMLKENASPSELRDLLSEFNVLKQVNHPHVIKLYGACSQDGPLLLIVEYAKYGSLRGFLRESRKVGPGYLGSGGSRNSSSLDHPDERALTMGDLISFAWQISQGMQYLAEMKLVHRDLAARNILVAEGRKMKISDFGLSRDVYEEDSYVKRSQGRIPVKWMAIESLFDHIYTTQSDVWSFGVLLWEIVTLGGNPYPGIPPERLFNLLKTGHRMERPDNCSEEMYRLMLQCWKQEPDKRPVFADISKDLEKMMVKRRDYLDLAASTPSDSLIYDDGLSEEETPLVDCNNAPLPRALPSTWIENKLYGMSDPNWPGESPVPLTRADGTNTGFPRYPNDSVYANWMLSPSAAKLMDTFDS
Sequence of UniProt P41145 (whole entry, looked up): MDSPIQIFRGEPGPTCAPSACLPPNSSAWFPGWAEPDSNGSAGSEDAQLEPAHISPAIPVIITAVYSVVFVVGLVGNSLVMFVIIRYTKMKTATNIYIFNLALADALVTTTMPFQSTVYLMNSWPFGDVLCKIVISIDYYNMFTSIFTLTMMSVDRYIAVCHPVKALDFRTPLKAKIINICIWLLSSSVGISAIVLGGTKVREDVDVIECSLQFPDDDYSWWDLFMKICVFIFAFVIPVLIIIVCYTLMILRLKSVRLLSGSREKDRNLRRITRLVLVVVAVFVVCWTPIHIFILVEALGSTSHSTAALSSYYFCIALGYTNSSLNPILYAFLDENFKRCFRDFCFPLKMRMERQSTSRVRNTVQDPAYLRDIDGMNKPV
Sequence of UniProt Q9H2K8 (whole entry, looked up): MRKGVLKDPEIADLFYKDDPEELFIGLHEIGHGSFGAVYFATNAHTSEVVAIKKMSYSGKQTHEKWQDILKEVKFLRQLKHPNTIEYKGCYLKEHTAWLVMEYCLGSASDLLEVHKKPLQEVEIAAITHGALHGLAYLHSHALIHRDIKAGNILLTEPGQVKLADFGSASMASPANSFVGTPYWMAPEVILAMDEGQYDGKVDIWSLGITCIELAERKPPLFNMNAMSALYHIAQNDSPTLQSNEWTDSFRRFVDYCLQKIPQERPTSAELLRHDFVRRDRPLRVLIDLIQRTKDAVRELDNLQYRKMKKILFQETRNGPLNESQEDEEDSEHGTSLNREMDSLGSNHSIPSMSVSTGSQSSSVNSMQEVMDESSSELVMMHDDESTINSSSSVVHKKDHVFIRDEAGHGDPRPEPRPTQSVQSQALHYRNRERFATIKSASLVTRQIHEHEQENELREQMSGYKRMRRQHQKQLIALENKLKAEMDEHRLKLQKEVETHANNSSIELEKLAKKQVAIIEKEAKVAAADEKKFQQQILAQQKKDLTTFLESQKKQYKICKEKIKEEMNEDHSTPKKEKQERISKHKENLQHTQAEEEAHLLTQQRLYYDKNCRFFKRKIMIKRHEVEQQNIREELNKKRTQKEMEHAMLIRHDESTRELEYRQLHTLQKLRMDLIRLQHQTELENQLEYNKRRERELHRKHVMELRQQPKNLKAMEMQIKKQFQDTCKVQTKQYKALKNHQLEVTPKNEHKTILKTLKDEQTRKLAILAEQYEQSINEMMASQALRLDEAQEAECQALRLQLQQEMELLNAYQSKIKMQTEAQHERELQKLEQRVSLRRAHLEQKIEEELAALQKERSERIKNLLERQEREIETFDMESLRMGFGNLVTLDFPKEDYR
Sequence of UniProt O76039 (whole entry, unmodified, looked up): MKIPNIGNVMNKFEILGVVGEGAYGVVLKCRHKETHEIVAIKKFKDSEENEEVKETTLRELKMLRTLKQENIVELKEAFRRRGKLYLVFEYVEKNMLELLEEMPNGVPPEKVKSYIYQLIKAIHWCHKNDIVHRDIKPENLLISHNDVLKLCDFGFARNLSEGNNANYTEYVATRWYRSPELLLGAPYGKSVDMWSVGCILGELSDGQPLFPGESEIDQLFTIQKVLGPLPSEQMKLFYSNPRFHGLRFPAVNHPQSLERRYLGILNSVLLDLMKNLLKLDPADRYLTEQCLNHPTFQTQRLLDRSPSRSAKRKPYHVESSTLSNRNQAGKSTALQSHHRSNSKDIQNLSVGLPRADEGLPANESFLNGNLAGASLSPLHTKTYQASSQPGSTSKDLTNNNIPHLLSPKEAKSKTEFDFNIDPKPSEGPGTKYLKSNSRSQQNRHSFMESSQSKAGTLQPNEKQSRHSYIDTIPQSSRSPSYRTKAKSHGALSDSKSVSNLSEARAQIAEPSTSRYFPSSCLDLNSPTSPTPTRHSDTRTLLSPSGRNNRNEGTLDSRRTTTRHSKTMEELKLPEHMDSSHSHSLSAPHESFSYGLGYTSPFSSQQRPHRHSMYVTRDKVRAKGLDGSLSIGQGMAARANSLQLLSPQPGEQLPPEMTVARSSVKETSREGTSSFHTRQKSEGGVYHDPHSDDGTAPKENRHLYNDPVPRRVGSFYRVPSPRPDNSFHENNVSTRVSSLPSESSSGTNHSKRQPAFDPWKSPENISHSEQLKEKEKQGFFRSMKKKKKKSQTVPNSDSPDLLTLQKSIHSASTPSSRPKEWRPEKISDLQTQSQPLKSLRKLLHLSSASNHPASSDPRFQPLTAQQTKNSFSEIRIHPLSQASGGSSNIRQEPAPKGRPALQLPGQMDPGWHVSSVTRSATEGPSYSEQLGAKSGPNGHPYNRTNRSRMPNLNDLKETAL
Sequence of UniProt P62344 (whole entry, looked up): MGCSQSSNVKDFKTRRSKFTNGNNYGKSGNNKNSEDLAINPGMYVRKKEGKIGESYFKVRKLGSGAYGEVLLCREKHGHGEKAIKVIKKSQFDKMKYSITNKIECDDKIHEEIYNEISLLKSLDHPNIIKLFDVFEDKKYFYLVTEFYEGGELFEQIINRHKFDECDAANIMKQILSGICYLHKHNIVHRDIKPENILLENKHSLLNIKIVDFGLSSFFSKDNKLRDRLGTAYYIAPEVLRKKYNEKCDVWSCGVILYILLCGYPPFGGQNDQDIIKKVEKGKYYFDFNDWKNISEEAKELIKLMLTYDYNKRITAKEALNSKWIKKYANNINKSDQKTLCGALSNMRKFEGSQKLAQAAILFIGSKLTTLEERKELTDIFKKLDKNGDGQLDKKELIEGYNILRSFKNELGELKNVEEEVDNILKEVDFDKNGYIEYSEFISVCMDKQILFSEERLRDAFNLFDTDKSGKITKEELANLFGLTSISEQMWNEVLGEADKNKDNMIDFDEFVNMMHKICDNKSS
Sequence of UniProt Q8NE63 (whole entry, looked up): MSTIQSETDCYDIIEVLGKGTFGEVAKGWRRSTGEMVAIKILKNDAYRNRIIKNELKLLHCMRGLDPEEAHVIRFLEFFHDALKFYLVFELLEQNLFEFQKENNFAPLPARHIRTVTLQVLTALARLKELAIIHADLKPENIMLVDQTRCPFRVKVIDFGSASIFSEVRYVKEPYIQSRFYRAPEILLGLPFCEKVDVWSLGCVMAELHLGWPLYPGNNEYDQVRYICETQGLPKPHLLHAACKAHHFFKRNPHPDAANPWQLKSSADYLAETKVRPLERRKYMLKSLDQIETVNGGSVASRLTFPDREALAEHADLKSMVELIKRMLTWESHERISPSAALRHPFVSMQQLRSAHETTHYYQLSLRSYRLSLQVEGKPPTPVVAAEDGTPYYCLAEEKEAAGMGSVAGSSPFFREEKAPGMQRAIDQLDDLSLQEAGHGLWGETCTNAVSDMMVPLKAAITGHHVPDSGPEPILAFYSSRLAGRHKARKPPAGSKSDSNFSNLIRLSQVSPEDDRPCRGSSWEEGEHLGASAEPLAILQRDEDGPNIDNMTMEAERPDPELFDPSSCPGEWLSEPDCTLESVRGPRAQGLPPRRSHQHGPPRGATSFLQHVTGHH

| Compound | target | test | test system | setting | measurement | result |
| --- | --- | --- | --- | --- | --- | --- |
| NC/C(=C\F)COc1cccc(Cn2c(=S)[nH]c(=O)c3[nH]cnc32)c1 | OPRK1 (Homo sapiens, UniProt P41145) | ligand displacement, radioligand | – | 10 µM | inhibition | < 50% |
| Nc1ncnc2occ(-c3ccc(NC(=O)Nc4cc(C(F)(F)F)ccc4F)cc3)c12 | FLT3 (Homo sapiens, UniProt P36888, K663Q) | cell-free assay, inhibitor | – | 20 µM | remaining signal | 6.3% |
| C1=C/COCc2cc(ccc2OCCN2CCCC2)Nc2nccc(n2)-c2cccc(c2)COC/1 | ERBB3 (Homo sapiens, UniProt P21860) | binding | – | 0.1 µM | remaining binding | 22% |
| Cc1cc2c(cc1N1C(=O)c3cccc4c(Cl)ccc(c34)C1=O)n(C)c(=O)n2C | Protein polybromo-1, BD2 (PBRM1, Homo sapiens, UniProt Q86U86) | thermal stability, DSF | – | 10 µM | ΔTm | -1 °C |
| CNc1ncc2c(/C=C/C(=O)N3CCC(OC)CC3)nn(Cc3cccc(C(F)(F)F)c3)c2n1 | TAOK3 (Homo sapiens, UniProt Q9H2K8) | enzyme activity, inhibitor, radiometric | – | 1 µM | remaining activity | 98% |
| CCCCC(=O)Nc1ccc(-c2ccc3ncn(CCC)c(=O)c3c2)cn1 | NEK4 (Homo sapiens, UniProt P51957) | binding, competition with immobilised ligand | – | 0.5 µM | remaining binding | 100% |
| O=C(Nc1c[nH]nc1C(=O)NC1CCNCC1)c1cc(F)cc(F)c1 | CDKL5 (Homo sapiens, UniProt O76039, T169D/Y171E) | thermal stability, DSF | – | – | ΔTm | > 6 °C |
| Cc1cc([C@@H](C)Nc2ccccc2C(=O)O)c2nc(N3CCC(F)(F)CC3)c(C#N)c(=O)n2c1 | Ribosomal protein S6 kinase alpha-3, N-terminal kinase domain (RPS6KA3, Homo sapiens, UniProt P51812) | binding, competition with immobilised ligand | – | 10 µM | remaining binding | 90% |
| C=CC(=O)N1CCC(COCC(=O)N2CCN(c3nc(-c4cnc(N)nc4C(F)F)nc(N4CCOC[C@@H]4C)n3)CC2)CC1 | HIPK4 (Homo sapiens, UniProt Q8NE63) | binding, competition with immobilised ligand | – | 1 µM | remaining binding | 100% |
| O=C(NCc1cc(O)c(O)c(Br)c1)c1ccco1 | Replicase polyprotein 1ab, main protease (rep, Porcine epidemic diarrhea virus, UniProt P0C6Y4) | enzyme activity, inhibitor, FRET | – | 10 µM | inhibition | 73.1% |
| c1cnn2ncc(-c3ccnc(N4CCC45COC5)n3)c2c1 | CDPK1 (Plasmodium falciparum, UniProt P62344) | binding | – | 1 µM | remaining binding | 35% |
| COc1ccc2[nH]cc(CCNC(C)=O)c2c1I | MTNR1B | β-arrestin recruitment, agonist | MT2 | 90 min | Emax | 91% |
| N[C@@H](CC(=O)O)C(=O)O | SLC25A13 (Homo sapiens, UniProt Q9UJS0) | thermal stability, DSF | – | 100 µM | ΔTm | ~3 °C |
| COc1ccc(NC(=O)Nc2ccccc2-c2nc(-c3ccoc3)n[nH]2)cc1 | RET (Homo sapiens, UniProt P07949) | enzyme activity, inhibitor, radiometric | – | 0.1 µM | remaining activity | 103% |
| COc1cc2c(CCNC(C)=O)c(I)[nH]c2cc1[N+](=O)[O-] | MTNR1B | β-arrestin recruitment, agonist | MT2 | 90 min | Emax | 96% |
| COc1cc(-c2cncc3c2CN(C)Cc2cc(N4CCNCC4)ccc2-3)cc(OC)c1OC | CLK4 (Homo sapiens, UniProt Q9HAZ1) | enzyme activity, inhibitor | – | 1 µM | remaining activity | 106% |

Some of these lines once more:
| Compound | target | test | test system | setting | measurement | result |
| --- | --- | --- | --- | --- | --- | --- |
| N[C@@H](CC(=O)O)C(=O)O | SLC25A13 (Homo sapiens, UniProt Q9UJS0) | thermal stability, DSF | – | 100 µM | ΔTm | ~3 °C |
